Measured values collected from several papers.
Compare with care: the assays were run in different laboratories. Several values in a cell are separate wells, animals, samples, runs or records.
Target: Serine/threonine-protein kinase pim-1 (PIM1, Homo sapiens, UniProt P11309)

Structure (SMILES) | test | conditions | scale | endpoint | value
C=CC(=O)Nc1cccc(-c2cnc3[nH]cc(C(=O)NC(C)(C)C)c3n2)c1 | enzyme activity, inhibitor | 0.1 µM | – | inhibition | 1%
COCC12C(=O)NC3C4(C(OC)CC1O)C1CC5(O)C(OC)C(O)C(OC(C)=O)(C1C5OC(=O)c1ccccc1)C3(O)C(OC)C24 (centres unmarked) | kinase activity, inhibitor, ProQinase kinase profiling | 25 µM | baseline: control | remaining activity | 101% and 94%
C[C@H]1CN(C(=O)c2cn(-c3ccnc(N)n3)c3cc(C#CC4(O)CCCCC4)ccc23)CCN1 | enzyme activity, inhibitor, FRET | 1 µM | – | inhibition | 0%
Cc1cccc(O[C@H]2CCC[C@@H](C(C)CNCc3ccncc3)C2)c1 (relative stereo) | enzyme activity, inhibitor | 10 µM | – | inhibition | -1%
COc1cc(-n2cc3cc(F)cc(C(N)=O)c3n2)cc(Cl)c1C1CC(O)(CCO)Cc2ccccc21 (centres unmarked) | enzyme activity, inhibitor | 10 µM | – | inhibition | 0.78%
COc1cc(Nc2nc(C)cc(-c3cnn4nc(OC)ccc34)n2)cc(C(F)(F)F)c1 | inhibitor | 1 µM | baseline: control | remaining activity | 100%
O=C=[N][Ru-4]123([n]4c5ccc(O)cc5c5c6c(c7cc(F)c[n+]1c7c54)C(=O)NC6=O)[S+]1CC[S+]2CC[S+]3CC1 (centres unmarked) | enzyme activity | 100 nM, human enzyme, with: 10 µM ATP | baseline: untreated | remaining activity | 31%
COc1ccc(C(=O)/C=C/c2ccccc2-c2c[nH]c3ccc(C#N)cc23)c(O)c1 | enzyme activity, inhibitor | 20 µM | – | inhibition | 56%
Fc1cncc(-c2ccc3[nH]c4ncnc(N[C@H]5CC[C@H](N6CCOCC6)CC5)c4c3c2)c1 | enzyme activity, radiometric | 1 µM, with: ATP | – | inhibition | 98%
CN1CCN(Cc2ccc(NC(=O)c3cccc(C#Cc4cnc(N)c5ncccc45)c3)cc2C(F)(F)F)CC1 | cell-free assay, competition with immobilised ligand | 0.5 µM | – | remaining binding | 94%
c1ccc2c(Nc3cc(C4CCC4)[nH]n3)nc(Nc3ccc4nc[nH]c4c3)nc2c1 | enzyme activity, inhibitor | 0.25 µM | – | remaining activity | 97%
NC(=O)C[C@H]1CCc2sc3ncnc(O[C@H]4CC[C@H](N5CCOCC5)CC4)c3c21 | enzyme activity, inhibitor | 10 µM | – | inhibition | 5%
CN1CC[C@@H](COc2cnc(C#N)cc2-c2ccn3nc(NC(=O)C4CC4)cc3c2)C1 | enzyme activity, inhibitor | 1 µM | – | inhibition | 13%
Cc1ccc(C)c(-c2ccc3nc(NC(=O)C4CCCCC4)nn3c2)c1 | enzyme activity, Dundee kinase panel | 10 µM | – | remaining activity | 78%
C=CC(=O)N1CCCC(n2c(=O)c3ncccc3n(Cc3ccc(Oc4ccccc4)cc3)c2=O)C1 (centres unmarked) | cell-free assay, competition with immobilised ligand | 1 µM | – | remaining binding | 100%
CNS(=O)(=O)Nc1nccc(Cc2c(C)c3ccc(Oc4ncccc4F)cc3oc2=O)c1F | binding, competition with immobilised ligand | 10 µM | – | remaining binding | 91%
Cc1[nH]nc2c1N=C(c1ccccc1Cl)c1cnc(N3CCOCC3)cc1N2 | enzyme activity, inhibitor | 0.5 µM | – | inhibition | -2.9%
COc1ccc(NC(=O)Nc2ccc3c(c2)C(=O)N(C(C)CO)CC(C)C(CN(C)Cc2ccc4c(c2)OCO4)O3)cc1 (centres unmarked) | kinase activity, KinaseProfiler | 0.03 µM, species human | baseline: control | remaining activity | 87%
CCC1C(COc2nccc3cc(C(N)=O)c(OC)cc23)NC(=O)C1F (centres unmarked) | enzyme activity, inhibitor, radiometric | 1 µM | – | inhibition | 12%
C=CC(=O)N1CCc2ccc(-n3c(=O)ccc4cnc5ccc(-c6cnn(C)c6)cc5c43)cc21 | KINOMEscan | 1 µM | baseline: DMSO control | remaining binding | 100%
CN1CCN(Cc2ccc(-c3ccc(CO[C@H]4CCC[C@@H]4NC(=O)c4cc(-c5cnn(C)c5)cnc4N)cc3)cc2)CC1 | enzyme activity, inhibitor | 0.1 µM | – | inhibition | 5%
Nc1ncc2c(n1)-c1c([nH]c3ccc(C4=CCOCC4)cc13)CCC2 | binding, competition with immobilised ligand | 1 µM | – | remaining binding | 100%
Nc1nc(Nc2ccccc2)sc1C(=O)c1ccccc1 | enzyme activity, inhibitor | 10 µM | – | remaining activity | 71%
COc1ccc(O)cc1-c1c[nH]c2ncc(-c3cncc(C(=O)N(C)C)c3)cc12 | binding, competition with immobilised ligand | 0.2 µM | – | inhibition | -1.98%
Cc1cccc(-c2ccc3nc(NC(=O)C4CCOCC4)nn3c2)c1 | enzyme activity, Dundee kinase panel | 10 µM | – | remaining activity | 99%
Nc1ncc(-c2cc(-c3cnn(CC(F)(F)F)c3)ncc2F)nc1C(=O)NC1CNCC(F)C1 (centres unmarked) | enzyme activity | 1 µM | baseline: DMSO control | remaining activity | 37%

Some of these lines once more:
Structure (SMILES) | test | conditions | scale | endpoint | value
C[C@H]1CN(C(=O)c2cn(-c3ccnc(N)n3)c3cc(C#CC4(O)CCCCC4)ccc23)CCN1 | enzyme activity, inhibitor, FRET | 1 µM | – | inhibition | 0%
Cc1cccc(O[C@H]2CCC[C@@H](C(C)CNCc3ccncc3)C2)c1 (relative stereo) | enzyme activity, inhibitor | 10 µM | – | inhibition | -1%
COc1cc(-n2cc3cc(F)cc(C(N)=O)c3n2)cc(Cl)c1C1CC(O)(CCO)Cc2ccccc21 (centres unmarked) | enzyme activity, inhibitor | 10 µM | – | inhibition | 0.78%
